Measurements gathered from unrelated publications.
Every numbered part comes from another study and shows a few of its results, in no order. Changes are numbered by the printed parent chain.

Series 1
Target: Histone acetyltransferase KAT6A, both winged helices, GST fusion (KAT6A, Homo sapiens, UniProt Q92794, residues 1-181)
Method: protein binding microarray
Form: double-stranded DNA, one strand shown
Sample: in vitro
Tested at: not given
Notes: 8-mer, flanks averaged, mean of 2 arrays, mostly near background
Relative to: not given
Direction: higher = stronger binding
Target sequence (chain): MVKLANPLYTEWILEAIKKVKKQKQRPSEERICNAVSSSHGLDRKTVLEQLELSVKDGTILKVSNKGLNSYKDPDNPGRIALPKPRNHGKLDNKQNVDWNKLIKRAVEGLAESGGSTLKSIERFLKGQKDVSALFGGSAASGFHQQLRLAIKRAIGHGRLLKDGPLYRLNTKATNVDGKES
Sequence | E-score
CTGGGCAA | -0.252
GAACTAAA | -0.126
CTCATATA | -0.0326
ACTACCTA | -0.0552
CTGGCCAA | -0.0907
CATAACGA | -0.0515
GAACACTC | 0.067
GGACTGAC | 0.00766

Series 2
Target: RNA binding protein fox-1 homolog 2, RRM domain, GST-SBP tag (RBFOX2, Homo sapiens, UniProt O43251-10, residues 100-194)
Method: RNA Bind-n-Seq
Form: RNA
Sample: in vitro
Tested at: 365 nM
Notes: natural RNA segment, single round, ends assumed
Relative to: no-protein control
Direction: higher = stronger binding
Shared flanks, not repeated: GGGAGUUCUACAGUCCGACGAUC … UGGAAUUCUCGGGUGCCAA
Target sequence (chain): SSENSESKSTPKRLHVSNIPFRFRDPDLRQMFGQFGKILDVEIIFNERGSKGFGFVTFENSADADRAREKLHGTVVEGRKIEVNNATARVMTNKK
Sequence | RBNS enrichment (R)
UUUAUUAUGUAAAGGACUACCCAUGAUAACAUGCCAUAUUAUGUGUUUAUAUUCUAAUGUAACCAUAUACCAUAACUAAAUAAAAGUUUGGCUACUUGCACUAAUCUUCC | 0.715
AGCGUGAGUAGCUCUUUUGUUUACUGUUUACACCCCUUAUUGGCAUGUCAACUCCUGUACUUCCCUUACUCUGUUGCCUUUCUUGAGAUGCAUUGUCCUGCUAACCCACA | 0.966
UAUAGCUGUUGUGUUUAAAAAUUGAAAAAAGUGGAAAACAUCUUUGUACAUUUAAGUCUGUAUUAUAAUAAGCAAAAAGAUUGUGUGUAUGUAUGUUUAAUAUAACAUGA | 0.762
UCUCACCCUGGUGUCAACAUGCUGUGCCUUUCUCUUUCUCUAUUUUUGUUGGUGACCUGGAUAGUGUGGCCUUUGGGACAGAUCAGAGGCACAGGAAAGCAAAGGAAAUG | 0.807
GGUCUUCUGUGCAACUUAGAUAUAAUAUUGUAAAAUGCUUUUCAAGUGUGGGUUUUGCCCUGAUUGUUGCAAAUACAAUUUCCACCUUCUGGAAAGGUAGGUUUGCUGUG | 0.714
UGUGGCCACAGAAUGUAACCGUCCAGUUUCUGCCUUUCACUUUCUUGGGGGUUGCUUGUGAAAUUAGGCUAAGUCAUUUGUAGACUAAUCAGUGAUUGUAAGUUUGCCUG | 2.78
GUGUCGUGGUUUAGCUCCUCGGUGGUGAGGCGUGCUUCUCCCUCCUGGUGGAGCCAGGCAGCAGGGCCUUCCUGACCAACAGCCAUGUCUGACCUUCCCACUGAGAAACA | 0.244
GUUGCUUGUUGUGUUGUAGGCAUGCUCUUCUCACCUUCUGUCAAGGACCUGGUGCCCUGGGUGGUGGAGGGCUCAGCCCUCUUGAUUCAGUAGCUUCCCAAGCAGCUGCU | 0.637

Series 3
Target: CCND3, cyclin fold, Cln2 fusion (human)
Method: yeast growth competition, sequencing
Sample: yeast
Notes: weak parent motif
Relative to: not given
Direction: higher = stronger binding
Starting sequence: CDC6 docking peptide (human); TLKGRRLVFDNQL; partner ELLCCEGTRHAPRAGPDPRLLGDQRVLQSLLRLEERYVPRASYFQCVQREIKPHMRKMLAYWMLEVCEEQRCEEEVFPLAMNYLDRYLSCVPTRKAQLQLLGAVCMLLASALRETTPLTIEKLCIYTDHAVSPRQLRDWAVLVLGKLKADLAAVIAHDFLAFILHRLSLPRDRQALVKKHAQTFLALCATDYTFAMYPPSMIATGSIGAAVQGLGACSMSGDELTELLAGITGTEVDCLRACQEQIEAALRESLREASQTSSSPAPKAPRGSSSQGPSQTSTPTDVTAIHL
Substitution | normalised enrichment score
D10T | 0.0436
Q12A | 0.112
R5T | 0.19
L13W | 0.241
R5K | -0.0474

Other studies, line by line
Substance | target | test | test system | conditions | scale | endpoint | value
PhoQ, residues 284 288 289 292 302 303 TTSMTC | PhoP, residues 12 14 15 18 19 AWHSL (Escherichia coli, UniProt P23836) | Sort-seq, refers to: YFP reporter | E. coli | PhoQ-PhoP variant library, with: 10 µM Mg2+ | relative to: high Mg2+ state, higher = stronger signaling | fold induction | 5.8

Some of these lines once more (series 2):
Sequence | RBNS enrichment (R)
UCUCACCCUGGUGUCAACAUGCUGUGCCUUUCUCUUUCUCUAUUUUUGUUGGUGACCUGGAUAGUGUGGCCUUUGGGACAGAUCAGAGGCACAGGAAAGCAAAGGAAAUG | 0.807
GGUCUUCUGUGCAACUUAGAUAUAAUAUUGUAAAAUGCUUUUCAAGUGUGGGUUUUGCCCUGAUUGUUGCAAAUACAAUUUCCACCUUCUGGAAAGGUAGGUUUGCUGUG | 0.714
